Experimental data from different studies.
Protocols differ between the studies behind these lines. ± gives the spread as reported.
ESR1: Estrogen receptor (ESR1, Homo sapiens, UniProt P03372)
Sequence of UniProt P03372 (whole entry, looked up): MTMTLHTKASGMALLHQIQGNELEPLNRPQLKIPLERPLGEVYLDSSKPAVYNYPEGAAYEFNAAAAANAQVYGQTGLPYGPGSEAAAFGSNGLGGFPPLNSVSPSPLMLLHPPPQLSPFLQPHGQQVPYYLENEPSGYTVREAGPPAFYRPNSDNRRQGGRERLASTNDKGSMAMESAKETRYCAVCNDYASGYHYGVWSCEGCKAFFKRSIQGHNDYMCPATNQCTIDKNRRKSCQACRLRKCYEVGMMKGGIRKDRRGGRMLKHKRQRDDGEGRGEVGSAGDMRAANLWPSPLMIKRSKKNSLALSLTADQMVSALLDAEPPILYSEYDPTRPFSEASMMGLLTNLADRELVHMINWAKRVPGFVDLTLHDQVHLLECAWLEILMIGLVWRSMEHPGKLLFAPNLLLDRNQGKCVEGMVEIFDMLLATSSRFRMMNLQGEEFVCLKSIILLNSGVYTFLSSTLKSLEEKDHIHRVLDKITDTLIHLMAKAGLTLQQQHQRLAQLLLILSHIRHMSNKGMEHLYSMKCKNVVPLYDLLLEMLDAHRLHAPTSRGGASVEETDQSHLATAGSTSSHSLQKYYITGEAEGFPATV

Structure (SMILES) = C[C@@H]1Cc2c([nH]c3ccccc23)[C@@H](c2c(F)cc(/C=C/C(=O)O)cc2F)N1C12CC(C1)C2; target = ESR1; assay = IHC H-score; system = human patients, tumour biopsies; conditions = dose not given; measurement = patients with decreased ER; result = 78.8%
Structure (SMILES) = CC/C(=C(\c1ccc(O)cc1)c1ccc(OCCN(C)CCOCCOCCOCCN(C)CCOc2ccc(/C(=C(\CC)c3ccccc3)c3ccc(O)cc3)cc2)cc1)c1ccccc1; target = ESR1; assay = competitor, radioligand competition binding; conditions = concentration not given, added: [3H]estradiol; how to read = reference: estradiol; measurement = relative binding affinity; result = 8.16%
Structure (SMILES) = CCCCCCCCCCCSc1nc2c([nH]1)c(=O)n(C)c(=S)n2C; target = ESR1; assay = reporter gene, ERE luciferase; system = T47D-KBluc; conditions = 10 µM, 24 h, added: estradiol 5 nM; how to read = reference: maximal luciferase activity; measurement = reporter activity; result = 105%
Structure (SMILES) = CCC(=C(c1ccc(O)cc1)c1ccc(OCCN(C)CCOCCOCCOCCOCCOCCOCCOCCOCCOCCOCCOCCN(C)CCOc2ccc(C(=C(CC)c3ccccc3)c3ccc(O)cc3)cc2)cc1)c1ccccc1 (mixture of isomers); target = ESR1; assay = ligand, radioligand competition binding; conditions = concentration not given, added: [3H]estradiol tracer; how to read = reference: estradiol; measurement = relative binding affinity; result = 27.9 ± 4%
Structure (SMILES) = Cc1cc([C@H](C(=O)N2C[C@H](O)C[C@H]2C(=O)N[C@@H](CC(=O)N2CCC(N3CCC(C#Cc4ccc(C(=O)N[C@H]5C(C)(C)[C@H](Oc6ccc(C#N)c(Cl)c6)C5(C)C)cc4)CC3)CC2)c2ccc(-c3scnc3C)cc2)C(C)C)on1; target = ESR1; assay = degrader, western blot; system = T47D; conditions = 0.01 to 1000 nM, 24 h; measurement = protein level; result = no effect
Structure (SMILES) = O=C1c2c(O)cc(O)cc2-c2c(-c3ccc(O)cc3)oc3cc(O)cc1c23; target = ESR1; assay = western blot; system = MCF7; conditions = 10 µM, 0.5 h pretreatment, added: 1 µM 4-hydroxytamoxifen 5.5 h; measurement = OHT-induced ER degradation; result = inhibited
Structure (SMILES) = CCC(=C(c1ccc(O)cc1)c1ccc(OCCN(C)CCOCCOCCOCCOCCOCCOCCOCCOCCOCCOCCN(C)CCOc2ccc(C(=C(CC)c3ccccc3)c3ccc(O)cc3)cc2)cc1)c1ccccc1 (mixture of isomers); target = ESR1; conditions = concentration not given, Z-Z:Z-E:E-E 1:2:1, added: [3H]-estradiol; how to read = reference: estradiol; measurement = relative binding affinity; result = 17.2 ± 2%
Structure (SMILES) = CCc1c(-c2ccc(O)cc2)nn(-c2ccc(O)cc2)c1-c1ccc(OCCN2CCCCC2)cc1; target = ESR1; assay = competitor, radioligand binding; conditions = concentration not given; how to read = reference: estradiol; measurement = relative binding affinity; result = 11.5 ± 1.5
Structure (SMILES) = CC(C)CSc1nc2c([nH]1)c(=S)n(C)c(=O)n2C; target = ESR1; assay = reporter gene, ERE luciferase; system = T47D-KBluc; conditions = 10 µM, 24 h, added: estradiol 5 nM; how to read = reference: maximal luciferase activity; measurement = reporter activity; result = 93%
Structure (SMILES) = CCC(=C(c1ccc(O)cc1)c1ccc(OCCN(C)CCOCCOCCOCCOCCOCCOCCOCCOCCOCCN(C)CCOc2ccc(C(=C(CC)c3ccccc3)c3ccc(O)cc3)cc2)cc1)c1ccccc1 (mixture of isomers); target = ESR1; assay = competitor, radioligand competition binding; conditions = concentration not given, added: [3H]estradiol; how to read = reference: estradiol; measurement = relative binding affinity; result = 23.9 ± 6.9%
Structure (SMILES) = CC(=C(c1ccc(Cl)cc1)c1ccc(OCCN2CCOCC2)cc1)c1ccc(Cl)cc1; target = ESR1; assay = reporter gene, agonist, yeast estrogen screen; conditions = 1 µM; how to read = reference: DMSO; measurement = fold activation; result = 1.56 ± 0.09 fold
Structure (SMILES) = CCCCC(C)Sc1nc2c([nH]1)c(=S)n(C)c(=O)n2C (stereo not shown); target = ESR1; assay = reporter gene, ERE luciferase; system = T47D-KBluc; conditions = 10 µM, 24 h, added: estradiol 5 nM; how to read = reference: maximal luciferase activity; measurement = reporter activity; result = 104%
Structure (SMILES) = CC(=C(c1ccc(O)cc1)c1ccc(Cl)cc1)c1ccc(Cl)cc1; target = ESR1; assay = reporter gene, agonist, yeast estrogen screen; conditions = 1 µM; how to read = reference: DMSO; measurement = β-galactosidase activity fold; result = 12.8
Structure (SMILES) = Oc1ccc(-c2cc(-c3ccc(OCCN4CCCCC4)cc3)n(-c3ccc(O)cc3)n2)cc1; target = ESR1; assay = competitive radioligand binding; conditions = concentration not given; how to read = reference: estradiol, higher = stronger binding; measurement = relative binding affinity; result = 5.72 ± 0.36
Structure (SMILES) = CCC(=C(c1ccc(Cl)cc1)c1ccc(OCCN2CCOCC2)cc1)c1ccc(OC)cc1; target = ESR1; assay = reporter gene, agonist, yeast estrogen screen; conditions = 1 µM; how to read = reference: DMSO; measurement = fold activation; result = 6.46 ± 0.69 fold
Structure (SMILES) = Cn1c(=S)c2[nH]c(SCCCc3ccccc3)nc2n(C)c1=O; target = ESR1; assay = reporter gene, ERE luciferase; system = T47D-KBluc; conditions = 10 µM, 24 h, added: estradiol 5 nM; how to read = reference: maximal luciferase activity; measurement = reporter activity; result = 37%
Structure (SMILES) = CCC(=C(c1ccc(Cl)cc1)c1ccc(OCCN2CCCCC2)cc1)c1ccc(Cl)cc1; target = ESR1; assay = reporter gene, agonist, yeast estrogen screen; conditions = 1 µM; how to read = reference: DMSO; measurement = fold activation; result = 1.14 fold
Structure (SMILES) = CCC(=C(c1ccc(O)cc1)c1ccc(OCCN(C)CCOCCOCCOCCOCCOCCN(C)CCOc2ccc(C(=C(CC)c3ccccc3)c3ccc(O)cc3)cc2)cc1)c1ccccc1 (mixture of isomers); target = ESR1; assay = ligand, radioligand competition binding; conditions = concentration not given, added: [3H]estradiol tracer; how to read = reference: estradiol; measurement = relative binding affinity; result = 20.8 ± 5.5%
Structure (SMILES) = O=S(=O)([C@@H]1C[C@@H]2O[C@H]1C(c1ccc(O)cc1)=C2c1ccc(O)cc1)N(CC(F)(F)F)c1ccc(Cl)cc1; target = ESR1; conditions = concentration not given; how to read = reference: estradiol; measurement = relative binding affinity; result = 0.961
Structure (SMILES) = CCCCCCCCSc1nc2c([nH]1)c(=O)n(C)c(=S)n2C; target = ESR1; assay = reporter gene, ERE luciferase; system = T47D-KBluc; conditions = 10 µM, 24 h, added: estradiol 5 nM; how to read = reference: maximal luciferase activity; measurement = reporter activity; result = 79%
Structure (SMILES) = CCC(=C(c1ccc(Cl)cc1)c1ccc(OCCCN(C)C)cc1)c1ccc(OC)cc1; target = ESR1; assay = reporter gene, agonist, yeast estrogen screen; conditions = 1 µM; how to read = reference: DMSO; measurement = β-galactosidase activity fold; result = 3.32
Structure (SMILES) = CCCC(CC)Sc1nc2c([nH]1)c(=S)n(C)c(=O)n2C (stereo not shown); target = ESR1; assay = reporter gene, ERE luciferase; system = T47D-KBluc; conditions = 10 µM, 24 h, added: estradiol 5 nM; how to read = reference: maximal luciferase activity; measurement = reporter activity; result = 72%
Structure (SMILES) = CCC(=C(c1ccc(Cl)cc1)c1ccc(OCCN2CCCCC2)cc1)c1ccccc1; target = ESR1; assay = reporter gene, agonist, yeast estrogen screen; conditions = 1 µM; how to read = reference: DMSO; measurement = fold activation; result = 1.99 ± 0.23 fold
Structure (SMILES) = CC/C(=C(\c1ccc(O)cc1)c1ccc(OCCN(C)CCOCCOCCOCCOCCOCCOCCOCCN(C)CCOc2ccc(/C(=C(/CC)c3ccccc3)c3ccc(O)cc3)cc2)cc1)c1ccccc1; target = ESR1; assay = ligand, radioligand competition binding; conditions = concentration not given, added: [3H]estradiol tracer; how to read = reference: estradiol; measurement = relative binding affinity; result = 30.7%
Structure (SMILES) = CC(=O)N[C@@H](Cc1c[nH]cn1)C(=O)N[C@@H](CCCCN)C(=O)N[C@@]1(C)C[C@@H](C)C/C=C\CCC[C@@](C)(C(=O)N[C@@H](CC(C)C)C(=O)N[C@@H](CCC(N)=O)C(=O)N[C@@H](CC(=O)O)C(=O)N[C@@H](CO)C(N)=O)NC(=O)[C@H](CCCNC(=N)N)NC(=O)[C@H](Cc2c[nH]cn2)NC(=O)[C@H](CC(C)C)NC1=O; target = Estrogen receptor, ligand-binding domain; with SRC3 (ESR1, Homo sapiens, UniProt P03372); assay = ERα/SRC3 interaction, inhibitor, TR-FRET; how to read = reference: wild-type peptide; measurement = potency ratio; result = 12 fold
Structure (SMILES) = CCC(=C(c1ccc(O)cc1)c1ccc(OCCN(C)CCOCCOCCOCCOCCN(C)CCOc2ccc(C(=C(CC)c3ccccc3)c3ccc(O)cc3)cc2)cc1)c1ccccc1 (mixture of isomers); target = ESR1; assay = competitor, radioligand competition binding; conditions = concentration not given, added: [3H]estradiol; how to read = reference: estradiol; measurement = relative binding affinity; result = 13.6 ± 1.3%
Structure (SMILES) = CC(=C(c1ccc(Cl)cc1)c1ccc(OCCN(C)C)cc1)c1ccc(Cl)cc1; target = ESR1; assay = reporter gene, agonist, yeast estrogen screen; conditions = 1 µM; how to read = reference: DMSO; measurement = fold activation; result = 0.8 ± 0.35 fold
Structure (SMILES) = CCCCCCCCCCCCSc1nc2c([nH]1)c(=O)n(C)c(=S)n2C; target = ESR1; assay = reporter gene, ERE luciferase; system = T47D-KBluc; conditions = 10 µM, 24 h, added: estradiol 5 nM; how to read = reference: maximal luciferase activity; measurement = reporter activity; result = 112%
Structure (SMILES) = CCC(=C(c1ccc(O)cc1)c1ccc(OCCN(C)CCOCCOCCOCCOCCOC)cc1)c1ccccc1 (mixture of isomers); target = ESR1; assay = competitor, radioligand competition binding; conditions = concentration not given, added: [3H]estradiol; how to read = reference: estradiol; measurement = relative binding affinity; result = 12.4 ± 2.2%
Structure (SMILES) = CCC(=C(c1ccc(Cl)cc1)c1ccc(OCCN2CCCCCC2)cc1)c1ccccc1; target = ESR1; assay = reporter gene, agonist, yeast estrogen screen; conditions = 1 µM; how to read = reference: DMSO; measurement = β-galactosidase activity fold; result = 2.98
Structure (SMILES) = CCCCCCCCCSc1nc2c([nH]1)c(=O)n(C)c(=S)n2C; target = ESR1; assay = reporter gene, ERE luciferase; system = T47D-KBluc; conditions = 10 µM, 24 h, added: estradiol 5 nM; how to read = reference: maximal luciferase activity; measurement = reporter activity; result = 92%

A few entries again:
Structure (SMILES) = CCCCCCCCCCCSc1nc2c([nH]1)c(=O)n(C)c(=S)n2C; target = ESR1; assay = reporter gene, ERE luciferase; system = T47D-KBluc; conditions = 10 µM, 24 h, added: estradiol 5 nM; how to read = reference: maximal luciferase activity; measurement = reporter activity; result = 105%
Structure (SMILES) = CCC(=C(c1ccc(O)cc1)c1ccc(OCCN(C)CCOCCOCCOCCOCCOC)cc1)c1ccccc1 (mixture of isomers); target = ESR1; assay = competitor, radioligand competition binding; conditions = concentration not given, added: [3H]estradiol; how to read = reference: estradiol; measurement = relative binding affinity; result = 12.4 ± 2.2%
